Results collected from several papers.
A part holds a random share of what one study measured. Positions count from the first letter of the parent shown.

Block 1
Target: CCNB2, cyclin fold, Cln2 fusion (human)
Technique: yeast growth competition, sequencing
Medium: yeast
Setting: weak parent motif
Relative to: not given
Reading: higher = stronger binding
Starting sequence: DBF4 docking peptide (human); DDIVSKLVFDFVE
`F11A`: “normalised enrichment score” 0.261.
`D10A`: “normalised enrichment score” -0.607.
Under “normalised enrichment score”, `D2A` is recorded as 0.288.
For `D1A`, “normalised enrichment score” read -0.0231.
`K6A`: “normalised enrichment score” -0.415.
Under “normalised enrichment score”, `E13A` is recorded as -0.174.
Under “normalised enrichment score”, `I3A` is recorded as -0.541.

Block 2
Target: RNA binding protein fox-1 homolog 2, RRM domain, GST-SBP tag (RBFOX2, Homo sapiens, UniProt O43251-10, residues 100-194)
Technique: RNA Bind-n-Seq
Form: RNA
Medium: in vitro
Tested at: 365 nM
Setting: natural RNA segment, single round, ends assumed
Relative to: no-protein control
Reading: higher = stronger binding
Residues (chain): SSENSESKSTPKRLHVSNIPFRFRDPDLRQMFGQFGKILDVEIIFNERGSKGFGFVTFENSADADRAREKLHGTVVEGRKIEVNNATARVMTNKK
For `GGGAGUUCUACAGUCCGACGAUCUUGCCUCCAUUCCAUGAGGCAUACAGUAAGGCUGCCUGCUAGUAAGCAGUCACAUAAGUGGGUACCUAUCCAGCCAUUCUCUUUUCAGAGCAUAUAAUACUAUCUUAGCCUGGAAUUCUCGGGUGCCAA`, “RBNS enrichment (R)” read 0.367.
Under “RBNS enrichment (R)”, `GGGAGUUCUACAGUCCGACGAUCUCUGUUUGGAAGACCAGAAUGUGAAGACAAGUAGUAGAAGAAAAUGAAUGCUGCUGCUGAGACUGAAGACCAGUAUUUCAGAACUUUGAGAAUUGGAGAGCAGGCACAUCUGGAAUUCUCGGGUGCCAA` is recorded as 0.728.
`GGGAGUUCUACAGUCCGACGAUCUUUGAAAACUGGGGACCAGUUCCAAAGUCAGUAAUUGUGUUAACCACGUGUAUAACAGCUCUGCUGGACACCCAAGAAAGCCAUGGGAACGCCAACUGGAAAGGUCCCCUUGGAAUUCUCGGGUGCCAA` — result for “RBNS enrichment (R)”: 0.215.
For `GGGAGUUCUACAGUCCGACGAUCUUUUGUGUCCAGCUCAGUAUCUGCAACAAGAAGUUUCCCACUUGUGGAUGUUUAGUGCAGCCACAGACUUGUAUUUUGAUCCCCAAUUUUUUUUUGAAAGAGUUCUCCUCUGGAAUUCUCGGGUGCCAA`, “RBNS enrichment (R)” read 0.61.
For `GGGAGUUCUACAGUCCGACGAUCUCUCACGUUCUCUAUAAUAGAAACAGCAGGUCUUGUCAGCUCCUUGUGUGGCUGAUGUGUCUGGAAAUGAUGUAGUUCAGGAAAGCAUUUUUUUUUUCUUUGAACCUUAAUGGAAUUCUCGGGUGCCAA`, “RBNS enrichment (R)” read 0.735.
`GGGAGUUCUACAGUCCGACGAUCUUCUGUGUAAAACAAAUUCAUAGGAUCUGAUUUGCUCAGAGUAUUAUUCAAGAAUGUAUUAAUAAGGCAUUGCCCCCUGUUUGCACUCAGGGUUAAUAUGUCAAAUGAAAUGGAAUUCUCGGGUGCCAA` — result for “RBNS enrichment (R)”: 0.606.
Under “RBNS enrichment (R)”, `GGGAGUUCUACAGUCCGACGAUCGCUGUUUUAAAGCCCAUUUCACGAGGAACAAAGAUUUACUUCCUGUCCUGCCAUUCGUGUGCUUCCAUGGACAAACCUGAUUUUUUUCUCUUAGUUCUAAAGAAUCUUGGUGGAAUUCUCGGGUGCCAA` is recorded as 0.29.
`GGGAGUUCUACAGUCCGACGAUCAUAUUGACAAGCUAGGACACCUGUGGUAUCUUUAAUUGUAUCUCCUUCAGAAGUUUGCUUCUUAUGGUAUAAUAAAGUAUGGAAGAAUAUUGAGUAUAUGUUUACUCUGGUGGAAUUCUCGGGUGCCAA`: “RBNS enrichment (R)” 0.348.

Block 3
Target: ABI1, truncated, D143A, DHFR fusion (Arabidopsis thaliana)
Technique: DHFR PCA, deep sequencing
Medium: yeast
Setting: methotrexate growth selection, single substitutions
With: (+)-ABA 1.4 µM
Relative to: wild-type fitted maximum
Reading: higher = stronger binding
Starting sequence: PYL1, truncated, DHFR fusion (Arabidopsis thaliana); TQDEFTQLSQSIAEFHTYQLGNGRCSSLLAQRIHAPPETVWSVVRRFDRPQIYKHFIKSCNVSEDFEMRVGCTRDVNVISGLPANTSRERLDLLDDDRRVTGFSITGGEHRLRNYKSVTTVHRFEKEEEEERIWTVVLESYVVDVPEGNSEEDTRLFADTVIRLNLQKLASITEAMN; partner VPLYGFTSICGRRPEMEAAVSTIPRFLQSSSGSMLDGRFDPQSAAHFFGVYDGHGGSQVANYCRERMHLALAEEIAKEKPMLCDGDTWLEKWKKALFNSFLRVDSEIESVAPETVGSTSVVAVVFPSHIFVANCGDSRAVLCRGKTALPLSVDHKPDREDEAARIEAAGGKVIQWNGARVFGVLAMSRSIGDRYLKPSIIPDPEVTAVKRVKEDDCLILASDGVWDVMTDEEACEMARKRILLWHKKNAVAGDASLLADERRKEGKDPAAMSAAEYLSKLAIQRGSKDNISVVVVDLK
Under “relative binding score”, `V43E` is recorded as -17.7%.
`L28H` — result for “relative binding score”: 3.93%.
`V44K`: “relative binding score” -8.74%.
`N149T` — result for “relative binding score”: 44.1%.
`H110S`: “relative binding score” 23.6%.
For `A158D`, “relative binding score” read -1.03%.
`P83W` — result for “relative binding score”: 2.02%.
For `L164Q`, “relative binding score” read 61%.
`V137R` — result for “relative binding score”: -2.89%.
`L94C` — result for “relative binding score”: 13%.
`N114C`: “relative binding score” -15.6%.
`D48W` — result for “relative binding score”: -14.8%.
Under “relative binding score”, `L93G` is recorded as -3.22%.
Under “relative binding score”, `I172T` is recorded as 15.8%.
`R24L` — result for “relative binding score”: 21.1%.
`A13M`: “relative binding score” 29.2%.
Under “relative binding score”, `M176W` is recorded as 38.6%.
Under “relative binding score”, `E4A` is recorded as 54.1%.
Under “relative binding score”, `R90E` is recorded as 6.47%.
`T6M` — result for “relative binding score”: 64%.
For `E125R`, “relative binding score” read 59.3%.
For `R88C`, “relative binding score” read 47%.
`S9N` — result for “relative binding score”: 54.2%.
Under “relative binding score”, `G81R` is recorded as -2.54%.
For `E131V`, “relative binding score” read 52.5%.

Block 4
Target: Histone acetyltransferase KAT6A, winged helix 1, GST fusion (KAT6A, Homo sapiens, UniProt Q92794, residues 1-85)
Technique: protein binding microarray
Form: double-stranded DNA, one strand shown
Medium: in vitro
Tested at: not given
Setting: 8-mer, flanks averaged, mean of 2 arrays, mostly near background
Relative to: not given
Reading: higher = stronger binding
Construct (chain): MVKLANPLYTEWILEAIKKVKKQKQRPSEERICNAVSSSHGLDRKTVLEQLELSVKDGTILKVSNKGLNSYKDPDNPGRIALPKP
`TCCACACA` gave an E-score of -0.158.
`GGCCAATA` has an E-score of 0.0142.
`ACTCTAGG` has an E-score of -0.103.
`AATGGACC` has an E-score of -0.162.
The E-score of `GGTCCTGA` is reported as -0.0238.
The E-score of `CTGAAGAC` is reported as -0.0284.
The E-score of `GAGTCTGC` is reported as -0.115.
`CAATGCGG` gave an E-score of 0.169.
`GAGTGTAA` gave an E-score of -0.154.
For `ACCGCGGC`, the E-score was 0.443.
`TGCGCCAA` gave an E-score of 0.153.
`CCCTAGCG` gave an E-score of 0.049.
For `GGTAGTTA`, the E-score was -0.00808.
For `CTCAGCCA`, the E-score was -0.168.
The E-score of `GGGAGTCA` is reported as -0.0503.
With `AATGGACG` the E-score was 0.08.
The E-score of `AACTACCG` is reported as 0.105.
With `AACCCCTG` the E-score was -0.247.
`TTGGCCAA` gave an E-score of -0.0615.
`AATTCGTC` gave an E-score of -0.0689.
With `ACAATCTG` the E-score was -0.165.

Block 5
Target: RING finger protein unkempt homolog, zinc fingers 1-6, GST-SBP tag (UNK, Homo sapiens, UniProt Q9C0B0, residues 30-357)
Technique: RNA Bind-n-Seq
Form: RNA
Medium: in vitro
Tested at: not given
Setting: RNA with constant flanks, human and mouse sites, ends assumed
Relative to: input RNA pool
Reading: higher = stronger binding
Residues (chain): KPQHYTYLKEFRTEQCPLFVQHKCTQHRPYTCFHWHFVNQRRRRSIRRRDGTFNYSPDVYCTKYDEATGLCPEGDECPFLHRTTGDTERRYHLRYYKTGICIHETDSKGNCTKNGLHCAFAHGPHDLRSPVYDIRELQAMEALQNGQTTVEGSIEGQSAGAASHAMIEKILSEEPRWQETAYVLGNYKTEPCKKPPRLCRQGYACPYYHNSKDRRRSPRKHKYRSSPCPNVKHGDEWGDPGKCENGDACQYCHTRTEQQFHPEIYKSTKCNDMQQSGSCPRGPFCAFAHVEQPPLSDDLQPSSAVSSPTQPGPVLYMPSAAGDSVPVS
For `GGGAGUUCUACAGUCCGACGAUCGGCUGGGAAACUUCAAAGCCUUCCCAGUCCCCAGCACCUGCCUUUCUCACUACUUCUCUGGAGAUGGUAGGAGAGUUUCCUAGGUCUUUCCAGGGCAGCAUGUGAUUCAUUUGGGGAUGGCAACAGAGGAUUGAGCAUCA`, the bound/input enrichment was 0.0914 ratio.
For `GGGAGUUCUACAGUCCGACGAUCCUAGGGAUUGGGCCAGGACCAGCAGACCUAAUUGACAAAGUCACUGGUCACCUAAAACUUUACUAGGUGGACUUUGAUAUGACAACAACCCCUCCAUCACAAGUGUUUGAAGCCUGUCAGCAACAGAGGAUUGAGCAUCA`, the bound/input enrichment was 0.175 ratio.
`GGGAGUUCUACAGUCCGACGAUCUCUUUUAUAUUUCCUCAAAUACUGUGAAUGGUCUGAGGCGCAGGGUAAAAUAUUUGGAGUACCUUUUAAUGCACUGCCCCAUUCUGCUGUACCAGAAUAUGGACACAUUCCAAGCUUUCUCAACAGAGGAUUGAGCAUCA` has a bound/input enrichment of 0.21 ratio.
With `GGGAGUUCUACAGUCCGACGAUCAACUACCAGGUGACAAACAGCAUGUUUGGUGCUUCAAGAAAGAAGUUUGUAGAGGGGGUGGACAGCGACUACCAUGAUGAGAACAUGUACUACAGCCAGUCUUCUAUGUUCCCACAUCGGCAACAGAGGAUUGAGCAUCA` the bound/input enrichment was 0.0876 ratio.
With `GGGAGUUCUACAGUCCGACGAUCGCUGCAGGAAAAGAGAUUAUAUGGCAUGGGCGGACAAAAGAAGAACCAGCUCAUUACUGUAGCAUUUGUGAAGUGGAGGUUUUUGAUCUGCUUUUUGUCACUAAUGAGAGUAAUUCACGACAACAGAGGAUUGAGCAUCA` the bound/input enrichment was 0.117 ratio.
`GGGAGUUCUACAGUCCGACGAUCUCAGUUCUCAGGUUGGGACUUUACUUAUUGCUGCAGAACAGGAAAGGUUAGAGAGUAAGACUUCAGAAUUUAUUGAGAUUGUUGUUGUUCAAACAUUUUAUAUUAGAAUUGACAUGUAAACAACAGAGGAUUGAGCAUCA` has a bound/input enrichment of 0.778 ratio.
`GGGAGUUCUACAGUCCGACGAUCUCGCUGCUGGAUUUGCUGGAAUGCUCUGUGUGCCUGGAGCGCCUGGACACUACGGCCAAGGUGUUGCCAUGCCAGCACACCUUCUGCCGACGCUGUCUGGAGAGCAUCGUGUGCUCGCGCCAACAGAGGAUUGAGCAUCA` gave a bound/input enrichment of 0.143 ratio.
`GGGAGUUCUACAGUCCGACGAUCCAAAUGAAUCAUGCCUGUAUGCUGUUUGUAGAAAAUUAUGGACAGAAAAUAAUUAAGAAGAAUUUAUGUCGAAACUUCAUGCUUCAUCUAGUCAGCAUGCAUGACUUUAAUCUUAUUAGCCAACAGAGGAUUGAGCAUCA` has a bound/input enrichment of 0.781 ratio.

A few entries again (block 4):
`ACTCTAGG` has an E-score of -0.103.
The E-score of `AACTACCG` is reported as 0.105.
For `GGTAGTTA`, the E-score was -0.00808.
With `AACCCCTG` the E-score was -0.247.
`CCCTAGCG` gave an E-score of 0.049.
`CAATGCGG` gave an E-score of 0.169.
